Assay results of several laboratories.
A part holds a random share of what one study measured.

Series 1 — method: RNA Bind-n-Seq; molecule type: RNA; medium: in vitro; tested at: 365 nM; relative to: no-protein control; direction: higher = stronger binding
Target: RNA binding protein fox-1 homolog 2, RRM domain, GST-SBP tag (RBFOX2, Homo sapiens, UniProt O43251-10, residues 100-194)
Notes: natural RNA segment, single round, ends assumed
Residues (chain): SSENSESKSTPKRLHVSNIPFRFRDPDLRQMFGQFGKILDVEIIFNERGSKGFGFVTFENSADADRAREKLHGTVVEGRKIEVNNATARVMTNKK
Sequence | RBNS enrichment (R)
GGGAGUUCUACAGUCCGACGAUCUCUUGCUAUACAGAAAAACCACAUUUCUUUUAUAUACUGUACGUGGGCAUAUCUUGUUGUUCAGUUUGGGUGUCUGCUAAAGAGGAAGUGCACUGGCCCUCUUUGAAAGGUGGAAUUCUCGGGUGCCAA | 1.77
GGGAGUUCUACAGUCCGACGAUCACCUAUUGCCUAUGAGAAACAUGUAAGAUAAUGUAUUUACAGCCAUUGUUACAAGUUUAUAAUGUAUUUUUCUAUCUUGUUUUAUAUGUAUGUUAUAUAACAUUCAAAAAUGGAAUUCUCGGGUGCCAA | 0.468
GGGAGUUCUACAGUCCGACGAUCUGAGUUUCUGUUGCUGGCUGGCUGACUGGCAUUAUCUAUGCUAAGUUGAAAUCAGGGGUGCCCAGCAGAGCCCAUCAUUCUCACUGUCUUUGAAACAAAGCUGUACGGUUUGGAAUUCUCGGGUGCCAA | 0.339
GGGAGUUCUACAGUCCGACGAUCUUAGAACGAGGCACAGAUCGCACAUUUUCUACUUGAGGAUCUUUUUUAGUGGUGAAUACCAAGAUUCAGUGCAUCCUUUAAAAGAGCGUUCUUGUCCCUGGCGCUGGCUAUGGAAUUCUCGGGUGCCAA | 0.332
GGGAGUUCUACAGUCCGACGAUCGCCUCACUGUCCCAAUUCCCAAAUUUUUCUUACAGAGAUUCAGGGCCUUCAAGAGUCUUCUUAAUGUUCUCCCACAGGGCUCUUUCUGAGUGCCCUAUAAUCCCUCCCCCUGGAAUUCUCGGGUGCCAA | 0.496
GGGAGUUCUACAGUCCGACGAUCAGUGUGAUUUCCAACAAUUCUGCUCUGGUUAUUUCAUUGAAGACAUCUUUGCACAUGUGACCAUGCUGUGUUAGGGGCUGUGUUCCAGGGACUGGACUCGAAGCUAGAACUGGAAUUCUCGGGUGCCAA | 0.397
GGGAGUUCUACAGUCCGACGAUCAGCAGACGGUGUCCCUCAGUGACUUGAGAGACAAGGACAAGGAAAUGUGCUGGGCCAAGGAGCUGCCGUGCUCUGCUAGCUUUGACCCGUGGGCAUGGAGAUUUACCCGCUGGAAUUCUCGGGUGCCAA | 0.888
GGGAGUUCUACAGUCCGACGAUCGAAAUAAGUCAGGUUCUUUACAAAUGGUAUUUUGAUAGAUACUGGAUUGUGUUUGUGCCAUAUUUGUGCCAUUCUUUUAAGAACAAUGUUGCAACACAUUCAUUUGGAUAUGGAAUUCUCGGGUGCCAA | 1.47

Series 2 — method: protein-binding microarray; molecule type: double-stranded DNA, one strand shown; medium: in vitro; tested at: not given; direction: higher = stronger binding
Target: TATA-box-binding protein 1 (TBP1, Arabidopsis thaliana, UniProt P28147, residues 1-200, full length assumed)
Notes: k-mer, scored over probes, only values ≥0.25
Construct (chain): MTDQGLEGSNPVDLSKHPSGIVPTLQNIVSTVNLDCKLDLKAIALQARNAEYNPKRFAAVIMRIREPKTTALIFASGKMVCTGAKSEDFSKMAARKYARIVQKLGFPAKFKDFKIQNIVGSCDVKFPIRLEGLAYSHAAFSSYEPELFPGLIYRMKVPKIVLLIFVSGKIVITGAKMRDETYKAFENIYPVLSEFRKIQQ
Sequence | E-score
AAATATG | 0.33
CTTATAA | 0.469
ATACGAT | 0.271
ATATAAA | 0.488
CCTATTA | 0.258
AATCATA | 0.301
GACTATA | 0.338
AGATAAA | 0.362
CACTTAA | 0.302
CCGTATA | 0.276
CTATAAG | 0.327
ATTAATC | 0.35
TACTTAA | 0.391
TAATGTA | 0.291
TAAATAA | 0.456
AAGATAT | 0.305
TATTTCA | 0.298
AGTATAT | 0.449
CTTATTA | 0.341
GCATTTA | 0.302

Series 3 — method: protein-binding microarray; molecule type: double-stranded DNA, one strand shown; medium: in vitro; tested at: 250 nM; notes: 60-bp whole probe; together with: salmon DNA 0.4 mg/ml; relative to: random background probes; direction: higher = stronger binding; constant ends, left off below: GCCTAGCAC … GTCTTGATTCGCTTGACGCTGCTG
Target: Interferon regulatory factor 7, full length, phosphomimetic (IRF7, Homo sapiens, UniProt Q92985, residues 1-503, S101K/S471D/S472D/S475D/S476D/S477D/S483D/S484D/S487D)
UniProt Q92985, sequence (whole entry, unmodified, looked up): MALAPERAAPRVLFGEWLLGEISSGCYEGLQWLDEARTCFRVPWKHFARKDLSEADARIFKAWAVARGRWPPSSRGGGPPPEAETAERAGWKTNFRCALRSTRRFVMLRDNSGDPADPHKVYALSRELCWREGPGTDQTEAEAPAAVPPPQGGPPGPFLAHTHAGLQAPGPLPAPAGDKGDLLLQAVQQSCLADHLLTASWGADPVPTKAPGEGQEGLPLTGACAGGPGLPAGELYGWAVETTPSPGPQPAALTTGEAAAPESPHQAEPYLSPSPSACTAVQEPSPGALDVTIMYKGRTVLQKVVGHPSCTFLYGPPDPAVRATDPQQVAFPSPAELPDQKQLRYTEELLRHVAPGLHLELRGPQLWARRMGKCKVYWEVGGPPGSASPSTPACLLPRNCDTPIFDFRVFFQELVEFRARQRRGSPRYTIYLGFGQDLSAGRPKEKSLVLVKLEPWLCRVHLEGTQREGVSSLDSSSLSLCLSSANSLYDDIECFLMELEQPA
Sequence | log fluorescence [z-score]
GACGAACTGGCGACTGGAGACGTGCTA | -0.752
TTAGGCTTCGGTTTCGGTTAGTGCTAG | 8.81
TTAGGAATCCTTCTCCTTTAGTGCTAG | -0.0842
TTTTGTTTTTCATTATTGTCGTGCTAG | 2.3
TCATAGTTTCTTTTCTTACTGTGCTAG | 5.24
TCAAAAGTGTTTCTCAAACTGTGCTAG | -0.0532
GACGATATCAGTCTCGAGGCGTGCTAG | 0.0617
TTAGGTTTCGGCATCGGTTAGTGCTAG | 3.62
GACGGTCTCGGTCTAGGGACGTGCTAG | 0.924
TTAGATATCGGGTCTGGATTAGTGCTA | -0.222
TCAATTGTGGTTTTCATACTGTGCTAG | 0.526
TTAGGACTGATTCTCCTTTAGTGCTAG | 0.81
TCACGTCTCCACCTGGGACTGTGCTAG | 0.133
TTAGGTATCGACAATGGGTTAGTGCTA | -0.0866
TTTTCACTTTCTTTAACATAGTGCTAG | 3.47
ATGCTTCTGGTCTTCTGGGCGTGCTAG | -0.338
GAGTCTTCTCCTCTAGGTTCGTGCTAG | 1.13
TTAGGTTTCGGATTGGGTTAGTGCTAG | 12.1
TTAGGTCTCCTATTCCTTTAGTGCTAG | 0.897

Series 4 — method: aptamer microarray, sandwich; molecule type: DNA with 2'F-ANA; medium: in vitro; tested at: 200 nM; together with: Cy3 exosite-II aptamer, 400 nM; direction: higher = stronger binding; sequence: GGTTGGTGTGGTTGG
Target: Prothrombin, mature alpha-thrombin (F2, Homo sapiens, UniProt P00734)
Notes: whole 15-mer aptamer, many near background
Modification | mean fluorescence intensity
2'F-ANA at 1 2 5 6 7 9 12 13 15 | 72.8 a.u.
2'F-ANA at 7 8 9 11 13 14 | 204 a.u.
2'F-ANA at 1 2 3 4 5 7 10 12 13 | 47.4 a.u.
2'F-ANA at 3 4 6 9 11 13 14 15 | 212 a.u.
2'F-ANA at 6 7 8 9 12 13 14 | 199 a.u.
2'F-ANA at 2 3 7 8 9 10 11 12 13 14 | 283 a.u.
2'F-ANA at 1 2 4 8 9 10 11 | 47 a.u.
2'F-ANA at 3 8 9 11 12 14 15 | 559 a.u.
2'F-ANA at 1 2 3 6 7 10 11 12 | 76.8 a.u.
2'F-ANA at 1 4 5 6 10 11 13 14 | 54.4 a.u.
2'F-ANA at 1 5 6 7 8 9 11 13 15 | 49.3 a.u.
2'F-ANA at 1 7 8 11 | 221 a.u.
2'F-ANA at 1 2 6 7 9 10 11 12 14 | 64.1 a.u.
2'F-ANA at 1 2 6 13 14 | 50.1 a.u.
2'F-ANA at 3 5 6 8 10 12 14 15 | 51.6 a.u.
2'F-ANA at 1 2 3 5 8 9 11 14 15 | 46.6 a.u.
2'F-ANA at 1 5 6 7 9 10 11 12 14 | 105 a.u.
2'F-ANA at 1 2 3 4 6 7 8 14 | 119 a.u.
2'F-ANA at 2 3 10 11 12 15 | 673 a.u.
2'F-ANA at 1 2 3 6 8 13 15 | 233 a.u.

Repeated from above (series 4):
Modification | mean fluorescence intensity
2'F-ANA at 6 7 8 9 12 13 14 | 199 a.u.
2'F-ANA at 2 3 7 8 9 10 11 12 13 14 | 283 a.u.
2'F-ANA at 1 2 4 8 9 10 11 | 47 a.u.
2'F-ANA at 3 8 9 11 12 14 15 | 559 a.u.
2'F-ANA at 1 2 3 6 7 10 11 12 | 76.8 a.u.
2'F-ANA at 1 4 5 6 10 11 13 14 | 54.4 a.u.
2'F-ANA at 1 5 6 7 8 9 11 13 15 | 49.3 a.u.
2'F-ANA at 1 7 8 11 | 221 a.u.
